Measured values from different studies.
Numbered parts are unrelated; each lists some results of a single study. Changes are numbered by the printed parent chain.

Sample 1 — target: CCND3, cyclin fold, Cln2 fusion (human); method: yeast growth competition, sequencing; sample: yeast; setting: weak parent motif; relative to: not given; reading: higher = stronger binding; endpoint: normalised enrichment score
Starting sequence: CDKN1B docking peptide (human); PSACRNLFGPVDH
PSACRNLFGPVDC [H13C]: 0.0969
PDACRNLFGPVDH [S2D]: 0.0535
PSACRNLFGAVDH [P10A]: 0.0411
PSACRNLFGPVDQ [H13Q]: 0.154
PSAVRNLFGPVDH [C4V]: 0.0756
PSACRNLFGPVRH [D12R]: 0.12
PSACRNLNGPVDH [F8N]: 0.127
PSACRNLMGPVDH [F8M]: 0.0905
PSACRNLFGIVDH [P10I]: 0.117
PSLCRNLFGPVDH [A3L]: 0.0765
PSACANAFGPVDH [R5A L7A]: 0.0742
KSACRNLFGPVDH [P1K]: 0.195
PSACRNLFPPVDH [G9P]: 0.0849
PSYCRNLFGPVDH [A3Y]: 0.0679
GSACRNLFGPVDH [P1G]: 0.11
PSACRWLFGPVDH [N6W]: 0.141

Sample 2 — method: RNA Bind-n-Seq; form: RNA; sample: in vitro; concentration: 365 nM; relative to: no-protein control; reading: higher = stronger binding; endpoint: RBNS enrichment (R)
Target: RNA binding protein fox-1 homolog 2, RRM domain, GST-SBP tag (RBFOX2, Homo sapiens, UniProt O43251-10, residues 100-194)
Setting: natural RNA segment, single round, ends assumed
Constant ends, left off below: GGGAGUUCUACAGUCCGACGAUC … UGGAAUUCUCGGGUGCCAA
Construct (chain): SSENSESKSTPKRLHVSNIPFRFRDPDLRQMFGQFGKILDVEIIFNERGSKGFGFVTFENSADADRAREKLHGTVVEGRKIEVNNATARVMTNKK
UUUGUAAAGUGGAUGGACAUGAUGGAAUUCAGUUGUCUCACCCUGAUAGCCUGGGUGUUGAUAUUCACUUUACCCGCACUCAGACACAGGCGACCUUGAAGCAGUUCUCG: 0.223
GCGGAAUUUGGUACUCAUUACCGUAUUCGCCGUACUAAGUUGGUUUCUGUUAGUCUUAACAGUCUGUUUUCUUUUAAAAGCAUGUAGGGCUUCAUUGCCAUGUUCUGUGG: 0.41
GUUAAGGGCACAAAGACAGCCAUGGGGACAUUUAUGUAAAUACGUCUCUAAUUGCCACACUGCAGCUGAACAGUGUGUAGUAUUUUCCCAGUCAGCUUUGCCAUACUGAC: 1.15
CAGGCACACACCCUGCCCAUUGCAGGUGGCUCUUACAGCUCUCUGGUGCCAGCACGGGAUCCCUGAAGUGACUCAGCCAGGCAGACAUGAGACAUGGCGGAGUGUCCAAA: 1.11
AACUUGAUGCUCUACCUGCCACCAACCACCAGGACUGAAGGAAGGAAACAGUACUGAGGGCAAAGUUUACAGAUGUUUUUGAUUCUGGCAUUUUGUCCAGAACAGCUUGU: 0.809
GUUUUUGUUGUUUGUUUUGUUAUUUUUUAACUAAUAAGUUGGUUAUCAGUGGUGGGUUUUCAAAAUGUACUUGUUCUAAUAAGUUGUACAAUGAACUAAAUCAGUGGCAU: 0.546
AGGAAAACCAUGACAGGCAAAUGCAUUUCCUCUGGAGUUUGAGACCCUGACAAACAACAGGUGGCAUCUGGUGUGCUGUUCUUGAGUUUUCGUUUAGGAUUAGUUGAGUU: 0.448
AGCAGCGACAUCCACUCGCCAUUUGCUGACAUGAGAUUGGGAGGAAGAAUCCAGAGGUGAAGAGGGAGACGGCUCUUAGCUGCGUUCAAGGCGGGGCCCUCGGGAGCCCA: 0.58
CCAUCUGGGUUUUAAGUUCAGAUGUGAACAUUUUUUAGUGCUUCUUUUUCUUUUACUUAAUGAACAUGUGAUAUGAGUAGUGAUGUGCAAAAGCACAGACGUUCAUGUUU: 0.416
ACGCUGAUGGGGAAAUAGUUCUUUCUCCCCCCACAGCCCCUGCCACUCACUAGGCUCCCACUUGCCUCUUCUGUGAAAAACUUCAAGCCCUGGCCUCCCCACCACUGGGU: 0.626
GAGCAGCAAACGUGCUCACCUGGUGUCUUGGAGCCCAGCCUCCUGCUGAGGUUGGGGGCUCUGCCAUCCCUCCCCUGCUGGGUACCCUGUUACCAUUCAUUGUCUGUGCU: 0.564
CUUUCUGGGCAGGCAGGCCAUGGGGCAUGGAGGAGGGUGCAAAGAUAUGGGUUGCUGUCUUCUGGCCUCCAGCUGCAUGGAGGCCGGCCCAGGGUCUAGGGUGUGCACUG: 1.43

Sample 3 — method: Sort-seq; measured: YFP reporter; sample: E. coli; setting: PhoQ-PhoP variant library; added: 10 µM Mg2+; relative to: high Mg2+ state; reading: higher = stronger signaling; endpoint: fold induction
Substance: PhoQ, residues 284 288 289 292 302 303 AANNSF
PhoP, residues 12 14 15 18 19 VGHWL (Escherichia coli, UniProt P23836): 2.36
PhoP, residues 12 14 15 18 19 TPWTL (Escherichia coli, UniProt P23836): 0.878
PhoP, residues 12 14 15 18 19 LHHYF (Escherichia coli, UniProt P23836): 41.6

Sample 4 — method: DHFR PCA, deep sequencing; sample: yeast; added: (+)-ABA 0 µM; relative to: wild-type fitted maximum; reading: higher = stronger binding; endpoint: relative binding score
Target: ABI1, truncated, D143A, DHFR fusion (Arabidopsis thaliana)
Setting: methotrexate growth selection, single substitutions
Starting sequence: PYL1, truncated, DHFR fusion (Arabidopsis thaliana); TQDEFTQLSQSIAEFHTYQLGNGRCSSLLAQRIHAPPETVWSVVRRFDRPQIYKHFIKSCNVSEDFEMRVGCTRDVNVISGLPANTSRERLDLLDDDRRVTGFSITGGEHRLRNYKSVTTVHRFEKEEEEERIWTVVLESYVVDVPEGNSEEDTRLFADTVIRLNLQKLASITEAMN
R46Q: 43.3%
F15Y: 25.8%
K54L: -2.87%
W134C: 27.7%
R123W: -5.22%
S80R: 3.72%
S87Q: 58.9%
E127M: 37.3%
K58P: 0.49%
E109Q: 4.46%

Some of these lines once more (sample 1):
PSACRNLFGPVDQ [H13Q]: 0.154
PSAVRNLFGPVDH [C4V]: 0.0756
PSACRNLFGPVRH [D12R]: 0.12
PSACRNLNGPVDH [F8N]: 0.127
PSACRNLMGPVDH [F8M]: 0.0905
